Measurements gathered from unrelated publications.
Lines come from different studies, so protocols differ. Numbers after ± are the reported error.

Compound | assay | system | setting | clearance
COc1cc(F)ccc1-c1ncnc(Nc2cccc(C[S@@](C)(=N)=O)c2)n1 | – | male Wistar rat, plasma | intravenous | 20 mL/min/kg
O=C(O)/C=C/c1ccc(NC(=O)C2(NC(=O)c3ccc4c(C5CCCCC5)c5n(c4c3)CCCc3ccccc3-5)CCCC2)cc1 | – | rat | intravenous, 2 mg/kg | 250 mL/min/kg
CC(=O)[CH](C(C)=O)[Pt-2]1([S+](C)C)[O]C(C)=CC(C)=[O+]1 (stereo not drawn) | refers to: platinum | rat, plasma | intravenous, dose not given | 0.57 mL/h
CN[C@@H]1[C@H](O)[C@H](NC)[C@H]2O[C@]3(O)[C@H](O[C@@H]2[C@H]1O)O[C@H](C)C[C@@]3(O)CNCc1ccc(F)cc1 | – | rat | intravenous, 10 mg/kg | 9.33 mL/min/kg
COc1cc(NC(C)=O)c2c(c1O)-c1c(OC)c(OC)cc3c1C(C2)N(C)CC3 (stereo not drawn) | – | male Wistar rat, plasma | intravenous, 100 mg/kg | 44.3 ± 8.87 mL/min/kg
Cc1cnc(Nc2cc(C)c(C)c(C)c2)nc1Nc1ccc2oc(=O)[nH]c2c1 | – | rat, plasma | intravenous, 1.0 mg/kg | 18 mL/min/kg
C=C(C)C(=O)Nc1ccc(-c2c(-c3ccc(Oc4nccc(C)n4)cc3)c3c(N)ncnc3n2C)cc1 | – | Sprague-Dawley rat | intravenous, dose not given | 30 mL/min/kg
Cc1cc(/C=C2\CN(C(C)C)C/C(=C\c3cc(C)c(O)c(C)c3)C2=O)cc(C)c1O | – | Sprague-Dawley rat, female, plasma | intravenous, 20 mg/kg | 86 mL/min/kg
N[C@H](COc1ccccc1C(F)(F)F)c1ccccc1 | – | male Sprague-Dawley rat | oral, 25 mg/kg | 397 ± 80 mL/min/kg
CCCCCCCCCCCC(=O)OCN1C(=O)CCc2ccc(OCCCCN3CCN(c4cccc(Cl)c4Cl)CC3)cc21 | – | rat Sprague Dawley female | intravenous, 5 mg/kg aripiprazole equivalent, emulsion | 5.33 ± 1.83 mL/min/kg
CN[C@@H]1[C@H](O)[C@H](NC)[C@H]2O[C@]3(O)[C@H](O[C@@H]2[C@H]1O)O[C@H](C)C[C@@]3(O)CNCc1ccc(Cl)cc1 | – | rat | intravenous, 10 mg/kg | 9.67 mL/min/kg
Cc1ccc(O)c2c3c(nn12)CCC(C)(NC(=O)c1ccc(-n2cnc4cc(C(=O)O)ccc42)cc1Cl)C3 (stereo not drawn) | – | rat | – | 30.4 mL/min/kg
CC1(C)CNC(=O)c2ccccc21 | – | Sprague-Dawley rat, male, plasma | intravenous, 1 mg/kg | 19 ± 6 mL/min/kg
O=C(O)/C=C/c1ccc(NC(=O)C2(NC(=O)c3ccc4c(C5CCCCC5)c5n(c4c3)CCCCNc3ccccc3-5)CCCC2)cc1 | – | rat | intravenous, 2 mg/kg | 9 mL/min/kg
CN(C)C(=O)c1ccnc(N2Cc3cn(Cc4ccc(F)cc4F)nc3C2)n1 | – | male Sprague-Dawley rat, plasma | 5 mg/kg | < 5 mL/min/kg
